Published values gathered from unrelated publications.
Numbers after ± are the reported error.
HCRTR1: Orexin/Hypocretin receptor type 1 (HCRTR1, Homo sapiens, UniProt O43613)
Chain of UniProt O43613 (whole entry, looked up): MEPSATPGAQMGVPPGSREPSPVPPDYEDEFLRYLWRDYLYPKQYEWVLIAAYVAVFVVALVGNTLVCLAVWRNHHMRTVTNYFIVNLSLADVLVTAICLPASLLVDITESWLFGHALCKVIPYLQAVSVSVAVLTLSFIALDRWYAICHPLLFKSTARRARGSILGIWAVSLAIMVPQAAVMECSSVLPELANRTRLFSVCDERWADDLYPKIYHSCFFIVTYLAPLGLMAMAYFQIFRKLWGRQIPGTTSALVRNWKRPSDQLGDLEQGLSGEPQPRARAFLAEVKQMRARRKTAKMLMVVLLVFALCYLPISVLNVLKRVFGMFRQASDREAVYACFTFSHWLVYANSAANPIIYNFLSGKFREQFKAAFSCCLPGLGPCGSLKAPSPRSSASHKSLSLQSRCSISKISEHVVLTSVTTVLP

The Vd of `CC[C@H](C)[C@@H]1NC(=O)[C@H](Cc2ccc(O)cc2)NC(=O)[C@@H](N)CSSC[C@@H](C(=O)N2CCC[C@H]2C(=O)N[C@@H](CC(C)C)C(=O)NCC(N)=O)NC(=O)[C@H](CC(N)=O)NC(=O)[C@H](CCC(N)=O)NC1=O` is reported as 0.085 L/kg (male Wistar rat, plasma; intravenous, 0.1 mg/kg).
For `Cc1ccc(C(=O)c2oc3ccc4c(C)cc(=O)oc4c3c2C)cc1`, the maximum solubility was 2.5 µM (0.1 M sodium acetate with 0.01% Triton X-100; pH 5.5).
`CCCCCCCCC[C@H](O)CC(=O)CCc1ccc(O)c(OC)c1` — result for “amount recovered, maximum”: 2040 ng (human ileostomy patients, ileal effluent; oral, 5 g TU-100, 4 h, no β-glucuronidase treatment).
The dose-normalized Cmax of `[2H]C([2H])([2H])Oc1cc2c(cc1OC([2H])([2H])[2H])C1CC(=O)C(CC(C)C)CN1CC2` (centres unmarked) is reported as 1.5 ng/mL (refers to: deuterated α-HTBZ; healthy human volunteers, plasma; oral, 24 mg single dose, standard meal).
The AUC(0-24 h) of `CC(C)(C(=O)NCC(F)(F)C(F)(F)F)C(=O)N[C@@H]1C(=O)Nc2ccccc2-c2ccccc21` is reported as 1.53 to 24.8 µM·h (advanced breast cancer patients, plasma; oral, 20 mg, range among patients).
`CCC(CC)O[C@@H]1C=C(C(=O)O)C[C@H](N)[C@H]1NC(C)=O` — result for “elimination rate constant”: 2.58e-05 ± 3.61e-06 s⁻¹ (healthy Indian subjects, fed, plasma; oral, 75 mg oseltamivir phosphate, test capsule formulation).
For `Cc1nc(-c2ccc(OCC(C)C)c(C#N)c2)sc1C(=O)O`, the AUC(0-24) was 2770 ng·h/mL (adults with gout, plasma; oral, 40 mg, added: verinurad 15 mg).
`Nc1nc2c(ncn2COCCO)c(=O)[nH]1` has a Papp of 2.7 ± 0.17 ×10⁻⁶ cm/s (excised rabbit cornea; 1 mM, 3 h, pH 7.4, added: L-arginine 5 mM).
`CCOc1ccc(Cc2cc([C@@H]3S[C@H](CO)[C@@H](O)[C@H](O)[C@H]3O)c(OC)cc2C)cc1`: “elimination rate constant” 1.88e-05 ± 3.28e-06 s⁻¹ (human, plasma; oral, 5 mg/day, day 1, multiple dose before breakfast).
The Cmax mean of `Cn1c(-c2ccc(C(N)=O)cc2F)nnc1C(C)(C)Oc1c(F)cc(Cl)cc1F` is reported as 213 ng/mL (young Japanese subjects, plasma; oral, 20 mg single dose, day 1).
For `C=CC(N)CCC(=O)O` (centres unmarked), the AUC(0-inf) was 16500 ± 267 ng·h/mL (male Sprague-Dawley rat, plasma; oral, 10 mg/kg, formulation 9, added: low-fat infant formula 1500 mg/kg).
The Papp of `Nc1nc2c(ncn2COCCO)c(=O)[nH]1` is reported as 5.55 ± 0.71 ×10⁻⁶ cm/s (rabbit New Zealand albino, male, excised cornea; 3 h, pH 5, 34 °C).
`O=C1N=C(N2CCOCC2)CN1c1ccc(Cl)cc1` gave an AUC(0-inf) of 74300 ng·h/mL (beagle dog, female, plasma; oral, 30 mg/kg, tablets, fed).
Under “elimination rate constant”, `COc1cccc(N2CCN(C3=Nc4c(F)cccc4[C@H](CC(=O)O)N3c3cc(C(F)(F)F)ccc3OC)CC2)c1` is recorded as 1.59e-05 ± 4.25e-06 s⁻¹ (UHPLC-MS/MS; healthy women, plasma; intravenous infusion, 480 mg single dose, 60 min infusion, HPβCD formulation).
Under “volume of distribution”, `COc1cc2ncnc(Nc3ccc(F)c(Cl)c3)c2cc1OCCCN1CCOCC1` is recorded as 8.3 L/kg (ICR mice, male, plasma; intravenous, 5 mg/kg, cassette dosing).
`CC1(C)C2CCC1(C)C(OC(=O)C(O)Cc1ccc(O)c(O)c1)C2` (centres unmarked) gave a Vd of 3.39 L/kg (Sprague-Dawley rat, plasma; intravenous, 6 mg/kg).
For `COc1cc2c(cc1OC)C(CCCC1CCCCC1)N(CC(=O)NCc1ccccc1)CC2` (centres unmarked), the Kb was over 10000 nM (HCRTR1; calcium signal, antagonist, fluorescence).
For `CCCCCCCCCCCCCNCC(=O)N(CC(=O)N(CCCCN)CC(=O)N(CCN)CC(=O)N(CC(N)=O)C1CCCC1)C1CCCC1`, “acetonitrile at elution” read 68.1% (preparative RP-HPLC C18; water to acetonitrile gradient; 0.05% TFA in eluent; higher = more hydrophobic).
`N[C@@H]1CCN(c2nccc(-c3cnn4ncccc34)n2)C1` gave a CLint of 40 µL/min/mg (human liver microsomes).
For `CCc1nc(C(N)=O)c(Nc2ccc(N3CCC(N4CCN(C)CC4)CC3)c(OC)c2)nc1NC1CCOCC1`, the oral bioavailability was over 61.2% (human, advanced solid tumours; oral, 120 mg, 14C mass balance, from excretion).
`Cc1cccc(C)c1OCC(=O)N[C@@H](Cc1ccccc1)[C@@H](O)C[C@H](Cc1ccccc1)NC(=O)[C@H](C(C)C)N1CCCNC1=O` gave an amorphous solubility of 15.4 µg/mL (UV spectroscopy; phosphate buffer with HPMCAS; pH 6.5, 37 °C).
The Cmax of `CC1=C2C[C@H]3[C@@H](CC[C@@H]4C[C@H](NS(C)(=O)=O)CC[C@@]43C)[C@@H]2CC[C@@]2(C1)O[C@@H]1C[C@H](C)CN[C@H]1[C@H]2C` is reported as 5.44 ng/mL (patients, plasma; oral, 30 mg single, day -7, cycle 1).
`CN1C(=O)c2ccccc2CCC(=O)c2ccccc21` has a kinetic solubility of over 100 µg/mL (nephelometry; aqueous buffer; 30 min, pH 6.5).
The permeation of `O=C(O)CN(CC(=O)O)Cc1cc2c(cc1O)Oc1cc(O)c(CN(CC(=O)O)CC(=O)O)cc1C21OC(=O)c2ccccc21` is reported as 14% (FCS; POPS/POPC giant vesicles; 20 nM, 30 min, pH 7.4, negative membrane potential, added: Ru(C17)2^2+ 10 µM).
For `CC(=O)Nc1ccc(O[C@@H]2O[C@H](C(=O)O)[C@@H](O)[C@H](O)[C@H]2O)cc1`, the AUC(0-12 h) was 89500 ng·h/mL (healthy volunteers, both sexes, plasma; oral, dose not given, day 2, added: favipiravir, acute).
For `CN[C@@H]1[C@H](O)[C@H](NC)[C@H]2O[C@]3(O)[C@H](O[C@@H]2[C@H]1O)O[C@H](C)C[C@H]3NC(=O)Cc1ccc(F)cn1`, the parent remaining was 96.6% (glutathione conjugation; rat liver S9; 100 µM, 2 h, pH 7.4, added: glutathione 0.2 mM).
For `CCCC[C@@H]1NC(=O)[C@@H](NC(=O)[C@H](CCC(=O)O)NC(=O)CNC(=O)CN2CCN(CC(=O)O)CCN(CC(=O)O)CCN(CC(=O)O)CC2)CCCCNC(=O)C[C@@H](C(N)=O)NC(=O)[C@H](C(C)C)NC(=O)[C@@H]2CCCN2C(=O)[C@H](CCCNC(=N)N)NC(=O)CNC(=O)[C@H](Cc2c[nH]c3ccccc23)NC(=O)[C@H](CCCNC(=N)N)NC(=O)[C@@H](Cc2ccccc2)NC(=O)[C@H](Cc2c[nH]cn2)NC(=O)[C@H](CCC(=O)O)NC1=O` [indium-111 labelled], the tissue uptake was 0.04 ± 0.03 %ID/g (C57 mice, B16/F10 lung metastatic melanoma, spleen; intravenous, 0.037 MBq, 24 h).
For `COCCOc1nc(N)c2nc(O)n(Cc3ccc(C(=O)NCCOCCOCCOCCOCCOCCOCCn4cc(CCC(=O)O)nn4)cc3)c2n1`, the unbound fraction was 0.504 (rapid equilibrium dialysis; dialyzed fetal bovine serum).
`COc1cc2c(cc1OC)C(Cc1ccc3ncccc3c1)N(CC(=O)NCc1ccccc1)CC2` (centres unmarked) gave a Kb of 432 nM (HCRTR1; calcium signal, antagonist, fluorescence).
The AUC(0-t) of `COc1cccc(-c2ccc(NC(=O)C3=C(C(=O)O)CCC3)c(F)c2)c1` is reported as 304000 ng·h/mL (human, male, plasma; oral, 50 mg once daily, day 13, geometric mean, pre-dosed).
With `Cc1nc2cccc(OCC(C)(C)C(=O)NC(C)C)c2c(N)c1C(=O)O` the excreted dose was 86.2% (Sprague-Dawley rat, male, urine and feces; oral, 10 mg/kg, 72 h).
`Cc1c(C(=O)NN2CCCCC2)nc(-c2ccc(Cl)cc2Cl)n1-c1ccc(OS(=O)(=O)CCC(F)(F)F)cc1` has a plasma concentration of 0 nM (LC-MS/MS; cynomolgus monkey 1, plasma; intravenous infusion, 0.03 mg/kg, 90 min, total concentration mid-point of PET).
`CC(=O)NCCCC[C@H](NC(=O)OCC1c2ccccc2-c2ccccc21)C(=O)N[C@@H](CCC(=O)C=[N+]=[N-])C(=O)OC(C)C` gave a compound remaining of under 50% (metabolic stability; pig, liver; 20 µM, 1 h).
With `N=C(N)NC(=O)c1cnn(-c2cccc3ncccc23)c1C1CC1` the CLint was 4.8 ± 0.685 mL/min/kg (human liver S9; 1 µM, added: hydralazine 50 µM, no NADPH).
With `CCCC[C@H](NC(C)=O)C(=O)N[C@H]1CCC(=O)NC[C@@H](C(=O)N[C@@H](Cc2c[nH]c3ccccc23)C(N)=O)NC(=O)[C@H](CCCNC(=N)N)NC(=O)[C@@H](Cc2ccccc2)NC(=O)[C@H](Cc2c[nH]cn2)NC1=O` the Vd/F was 1.08 L/kg (female rat, plasma; subcutaneous, 1 mg/kg/day, multiple doses, once daily).
`CN(C)C(=O)c1cc2cnc(Nc3ccc(N4CCNCC4)cn3)nc2n1C1CCCC1` gave an AUCtau of 30700 ng·h/mL (human, plasma; 600 mg, steady state, geometric mean, added: binimetinib).
For `CC(C)C[C@H](NC(=O)[C@H](Cc1ccccc1)NC(=O)c1cnccn1)B(O)O`, the CL was 160 mL/min (paediatric ALL or AML patients, plasma; intravenous, 1.3 mg/m^2 twice weekly, day 8, population PK, BSA 1.8 m^2).
`CCCS(=O)(=O)Nc1ccc(F)c(C(=O)c2c[nH]c3ncc(-c4ccc(Cl)cc4)cc23)c1F`: “unbound fraction in incubation” 1.31e-05 ± 4.1e-06 (rapid equilibrium dialysis; 100% human plasma; 500 µM, 4 h).

Excerpt of the above:
`Nc1nc2c(ncn2COCCO)c(=O)[nH]1` has a Papp of 2.7 ± 0.17 ×10⁻⁶ cm/s (excised rabbit cornea; 1 mM, 3 h, pH 7.4, added: L-arginine 5 mM).
`CCOc1ccc(Cc2cc([C@@H]3S[C@H](CO)[C@@H](O)[C@H](O)[C@H]3O)c(OC)cc2C)cc1`: “elimination rate constant” 1.88e-05 ± 3.28e-06 s⁻¹ (human, plasma; oral, 5 mg/day, day 1, multiple dose before breakfast).
The Cmax mean of `Cn1c(-c2ccc(C(N)=O)cc2F)nnc1C(C)(C)Oc1c(F)cc(Cl)cc1F` is reported as 213 ng/mL (young Japanese subjects, plasma; oral, 20 mg single dose, day 1).
